Measured values pooled from the literature.
Each line is one published result; not all experiments were run side by side. Values joined by “and” are separate records of one study, mostly repeats; a detail may differ. Numbers after ± are the reported error.

The tumour-to-blood ratio of `COc1cccc(OC)c1-c1cc(C(=O)NC2(C(=O)O)C3CC4CC(C3)CC2C4)nn1-c1ccc(C(=O)N(C)CCCN(C)CCCN(C)C(=O)CN2CCN(CC(=O)[O-])CCN(CC(=O)[O-])CCN(CC(=O)[O-])CC2)cc1C(C)C.[177Lu+3]` (stereo not shown) is reported as 299 (mouse, HT-29 xenograft; 24 h post injection, biodistribution; baseline: tumour over blood uptake).
Under “literature range of log K”, `c1ccc2c(c1)c1cccc3ccc4cccc2c4c31` is recorded as 5.09 to 5.91 log units (PDMS-water partitioning; PAH compilation).
`Oc1ccc(/C=C/c2cc(O)cc(O)c2)cc1`: “blood urea nitrogen” 18.1 mg/dL and 22.3 mg/dL and 18.8 mg/dL (rat, azoxymethane-injected, blood at sacrifice; 10 mg/kg).
`CCN1/C(=C/C(C)=O)Sc2ccc(F)cc21`: “QTc interval change” 98.2 ± 2.2% (cynomolgus monkey; oral, 100 mg/kg, 2 h post-dose; baseline: pre-dose).
`N#Cc1ccc(-c2cnc3ccc(-c4ccc(C(=O)N5CCOCC5)cc4)cn23)cc1` — result for “placebo-corrected change from baseline”: -7.1 ms (refers to: QT interval; healthy volunteers; oral, 20 mg, fasted, time-averaged).
`CCn1cc(C(=O)N2CCOCC2)c(=O)c2cc(NC3Cc4ccccc4C3)cnc21` gave an AUC(0-inf) of 54600 ng·h/mL (human, fed; oral suspension, 2000 mg single dose, arithmetic mean).
`CNC(=O)c1ccc(-c2cnc3ncc(Cc4ccc5ncccc5c4)n3n2)cc1F`: “Pneumonitis dose reduction/interruption” 0% (Japanese patients; oral, 400 mg, grade 3/4).
`COc1cc2nccc(Oc3ccc(NC(=O)c4cc5c(n(-c6ccccc6)c4=O)CCCC5=O)nc3)c2cc1OC`: “grade ≥3 Thrombocytopenia patients” 0% (relapsed or refractory AML; oral, 10 mg once daily).
The accuracy of `O=C(O)C1=CO[C@@H](O[C@@H]2O[C@H](CO)[C@@H](O)[C@H](O)[C@H]2O)[C@@H]2C(CO)=CC[C@H]12` is reported as 103% (rat plasma; 200 ng/mL, 2 weeks, -70 °C, post-preparative stability).
The AUC(0-inf), metabolite of `CC(F)(F)c1nc2nc(CO)cc(Nc3ccc(S(F)(F)(F)(F)F)cc3)n2n1` is reported as 389000 ng·h/mL (LC-MS/MS; malaria patients, plasma; oral, 600 mg of parent drug).
`NC(=O)C[C@H](N)C(=O)O`: “log2 fold change” -0.106 (binding, MIDAS equilibrium dialysis LC-MS; A2AR-BRIL thermostabilized; concentration not given; baseline: no-protein control).
`O=C(O)CCC(=O)O.[2H]C([2H])([2H])Oc1cc(C)c2[nH]ccc2c1CN1CC[C@@H](C2CC2)C[C@H]1c1ccc(C(=O)O)cc1` — result for “subjects with TEAE Appendicitis”: 0% (multiple ascending dose; healthy Chinese subjects; 125 mg twice daily).
Under “log2 fold change”, `N[C@@H](CS(=O)(=O)O)C(=O)O` is recorded as -0.342 (binding, MIDAS equilibrium dialysis LC-MS; A2AR-BRIL thermostabilized; concentration not given; baseline: no-protein control).
`C[Si](C)(C)O[Si](C)(C)O[Si](C)(C)O[Si](C)(C)O[Si](C)(C)C` — result for “octanol-water partition coefficient”: 2.57e+09 (octanol/water).
`CNC(=O)c1ccc(-c2cnc3ncc(Cc4ccc5ncccc5c4)n3n2)cc1F`: “patients with adverse event” 8% (refers to: Headache, all grades; cancer patients; oral, dose not given, dose escalation, any causality).
`COc1cc2nccc(Oc3ccc(NC(=O)NC4CC4)c(Cl)c3)c2cc1C(N)=O`: “apparent clearance CLz/F” 34.8 ± 5.83 mL/min/kg (UPLC-MS/MS; Sprague-Dawley rat, male, plasma; oral, 10 mg/kg, without azole co-treatment).
`Cc1ccc([C@@H]2O[C@H](CO)[C@@H](O)[C@H](O)[C@H]2O)cc1Cc1ccc(-c2ccc(F)cc2)s1`: “urinary sodium excretion change” -18 mEq (Japanese type 2 diabetes patients; 400 mg, day 2, 24 h urine collection; baseline: baseline).
For `C=CC(=O)NC1CCN(c2ncc3ncnc(Nc4ccc(Oc5ccc6c(c5)ncn6C)c(C)c4)c3n2)CC1`, “adverse events incidence” read 0% (refers to: gastrointestinal disorders (SOC); human male; oral, dose not given, AEs, treatment-related, on drug, CTCAE).
For `Cc1cc(-c2nccc3c2ccn3CC(=O)Nc2ccc(-c3cnccn3)cn2)ccn1`, “device site dermatitis incidence” read 0% (healthy human volunteers; oral, 40 mg single dose, single ascending dose).
`CN1CC(=O)N2[C@H](c3ccc4c(c3)OCO4)c3[nH]c4ccccc4c3C[C@@H]2C1=O` gave an accuracy of 98.5% (human plasma; 400 ng/mL, freeze-thaw at -20 °C).
`O=C(Nc1cnccc1Cl)N1CCN(Cc2ccc3c(c2)OC(F)(F)O3)CC1`: “abdominal pain incidence” 33.3% (multiple ascending dose; young men; 75 mg, treatment-emergent adverse events).
The AUC(0-inf) of `CNC(=O)c1ccc(-c2cnc3ncc(Cc4ccc5ncccc5c4)n3n2)cc1F` is reported as 7280 ng·h/mL (human moderate hepatic impairment NCI; oral, 200 mg single dose, geometric mean).
With `O=C(CCC(C(=O)[O-])N1CCN(C(CCC(=O)NCC(O)CO)C(=O)[O-])Cc2cccc(n2)CN(C(CCC(=O)NCC(O)CO)C(=O)[O-])CC1)NCC(O)CO.[Gd+3]` (stereo not shown) the Gd release was 0.014% (LC-ICP-MS; human plasma; pH 7.4, 37 °C; baseline: total Gd per day).
`COc1cc(Nc2ncc3c(n2)-c2ccc(Cl)cc2C(c2c(F)cccc2OC)=NC3)ccc1C(=O)O` — result for “patients with lung infection”: 4% (cancer patients; oral, dose not given, all grades any attribution, together with: pembrolizumab).
With `C[C@@](Cc1ccc(O)c(O)c1)(NN)C(=O)O` the AUC(0-t) was 0.7 µM·h (Parkinson's disease patients, plasma; oral, dose not given, 3 h, high levodopa AUC subgroup (11.5 µmol·h/L), median).
For `CCc1cc(C(=O)NC)c2nccc(N3CCc4c(cc(Cn5ccnc5)cc4-c4cn(C)nc4C(F)(F)F)C3=O)c2c1`, “reticulocyte percentage change” read -39.5% (Sprague Dawley rats; oral, 100 mg/kg twice daily, 7 days; baseline: vehicle).
`C/C(=N\c1ccc(O)cc1)c1cc2ccccc2n1C` has a remaining compound of 96.3 ± 1.6% (processed rat plasma sample; 50 ng/mL, 24 h, room temperature, autosampler tray; baseline: nominal).
For `Cc1cc(NC2CCN(C(=O)OC3CCN(C(=O)/C=C/CN(C)C)C3)CC2)n2ncc(C(C)C)c2n1` (stereo not shown), “patients with TEAE” read 0% (CTCAE v4.0, refers to: Asthenia; patients with advanced solid tumours; oral, dose not given, all schedules, grade 3 or higher).
For `Cc1nc2cccc(OCC(C)(C)C(=O)NC(C)C)c2c(N)c1C(=O)O`, the PCE/NCE ratio was 0.8 (male Swiss albino CD-1 mouse, bone marrow; oral, 500 mg/kg, 24 h).
`Cc1c(-c2ccc(N3CCc4cccc(C(=O)Nc5nc6ccccc6s5)c4C3)nc2C(=O)O)cnn1CC12CC3(C)CC(C)(C1)CC(OCCNCC[C@H](O)CO)(C3)C2`: “systemic vascular resistance change” 7% (anaesthetised male beagle dogs; intravenous infusion, 0.3 mg/kg/min, 45 min; baseline: vehicle).
For `CC(C)[C@@H](CS(=O)(=O)C(C)C)N1C(=O)[C@@](C)(CC(=O)O)C[C@H](c2cccc(Cl)c2)[C@H]1c1ccc(Cl)cc1`, “spinal cord distribution advantage” read 89 (FVB mouse, Abcb1a/b and Abcg2 knockout, spinal cord; intravenous, 20 mg/kg, unit not given; baseline: knockout Kp over wild-type Kp).
The renal clearance of `C[C@@H](Oc1ccc(S(C)(=O)=O)cc1C(=O)N1C[C@@H]2C[C@]2(c2cc(C(F)(F)F)on2)C1)C(F)(F)F` is reported as 4.88 mL/min (elderly humans, urine; oral, 25 mg once daily, 0-24 h, single dose, geometric mean).
With `NC(=O)c1cc(Oc2ccc(NC(=O)Nc3ccc(Cl)c(C(F)(F)F)c3)c(F)c2)cc[n+]1[O-]` the accuracy was 100% (short-term stability; mouse plasma; 750 ng/mL, 8 h, room temperature).
For `[18F]c1ccc(-c2ccc3c(c2)[nH]c2ccncc23)cn1`, the SUV was 0.394 ± 0.027 (ex vivo biodistribution; APP/PS1 mouse, AD model, hippocampus; intravenous, 30 min).
`COc1ccc([C@@H](O)c2cc(-c3ncnc4cc(N5CCOCC5)ccc34)c(F)cc2Cl)nn1`: “drug-related gastrointestinal AE” 67% (locally advanced rectal cancer patients; 150 mg, together with: capecitabine and radiotherapy).
`O=C1NCCc2nc(OCc3cccc(F)c3)ccc21`: “Irwin test score” 0 (refers to: Irritability; Sprague-Dawley rat male; oral, 100 mg/kg, 0 min; baseline: baseline, direction not given).
The Tmax of `COc1nc(-c2cc(C)c(N[C@@H](C)c3cc(F)cc(F)c3)nn2)ccc1-n1cnc(C)c1` is reported as 4 h (cynomolgus monkey, male, plasma; oral, 2 mg/kg).
`FC(F)(F)c1ccc(CNc2ccc(Cc3c[nH]c4ncc(Cl)cc34)cn2)cn1` — result for “treatment-related adverse events”: 4% (refers to: face oedema; human, advanced solid tumours, non-TGCT cohort; oral, 1000 mg/day, any grade).
`Cl.[2H]C([2H])([2H])CC(=O)c1cnc(NC(=O)C2CC2)cc1Nc1cccc(-c2ncn(C([2H])([2H])[2H])n2)c1OC` has a Vz/F of 136 L (geometric mean; human; oral, 10 mg once daily, day 1, fasted, liquid, multiple dose).
With `C=CC(=O)Nc1cc(Nc2nccc(-c3cn(C4CC4)c4ccccc34)n2)c(OC)cc1N(C)CCN(C)C` the ALP activity was 100 ± 8.66 U/L (BALB/c nude mouse, LU0387 xenograft, serum; oral, 40 mg/kg).
`NCCONC(=O)[C@@H]1CC[C@@H]2CN1C(=O)N2OS(=O)(=O)O`: “amount excreted in urine (0-24 h)” 1530 mg (human male, urine; intravenous infusion, 2 g single dose).
Under “mean plasma concentration”, `CCN1CCN(Cc2ccc(NC(=O)c3ccc(C)c(NC(=O)c4cncc(-c5cccs5)c4)c3)cc2C(F)(F)F)CC1` is recorded as 349 ng/mL (LC-MS/MS; C57BL/6 mouse, plasma; intraperitoneal, 30 mg/kg single dose, 4 h).
`CC(C)n1c(Nc2cccnc2)nc2cnc(Nc3ccc(N4CCN(C)CC4)cc3)nc21` — result for “subjects with adverse event”: 7.1% (refers to: diastolic blood pressure increased; healthy male subjects; oral, 150 mg, study, together with: rifampin).
With `Cc1noc(C)c1Cn1cc(N2C(=O)CN(Cc3cccc(O)c3)C2=O)cn1` the remaining parent was 73 % peak area (pooled human liver microsomes; 1 µM, 10 min, pH 7.4).
`Cc1cc(C)c(CNC(=O)c2cc(Cl)c3c(c2C)O[C@@](C)([C@H]2CC[C@H](N(C)C)CC2)O3)c(=O)[nH]1` — result for “patients with TEAE”: 4.2% (refers to: Pruritus; human patients; oral, 200 mg once daily, 1 day onset day 14).
The accuracy of `OCC1=C[C@@H](O)[C@@H]2C=CO[C@@H](O[C@@H]3O[C@H](CO)[C@@H](O)[C@H](O)[C@H]3O)[C@H]12` is reported as 94% (post-procedure stability; rat plasma; 200 ng/mL, 1 h, room temperature).

Excerpt of the above:
`CN1CC(=O)N2[C@H](c3ccc4c(c3)OCO4)c3[nH]c4ccccc4c3C[C@@H]2C1=O` gave an accuracy of 98.5% (human plasma; 400 ng/mL, freeze-thaw at -20 °C).
The renal clearance of `C[C@@H](Oc1ccc(S(C)(=O)=O)cc1C(=O)N1C[C@@H]2C[C@]2(c2cc(C(F)(F)F)on2)C1)C(F)(F)F` is reported as 4.88 mL/min (elderly humans, urine; oral, 25 mg once daily, 0-24 h, single dose, geometric mean).
`Cc1c(-c2ccc(N3CCc4cccc(C(=O)Nc5nc6ccccc6s5)c4C3)nc2C(=O)O)cnn1CC12CC3(C)CC(C)(C1)CC(OCCNCC[C@H](O)CO)(C3)C2`: “systemic vascular resistance change” 7% (anaesthetised male beagle dogs; intravenous infusion, 0.3 mg/kg/min, 45 min; baseline: vehicle).
The accuracy of `O=C(O)C1=CO[C@@H](O[C@@H]2O[C@H](CO)[C@@H](O)[C@H](O)[C@H]2O)[C@@H]2C(CO)=CC[C@H]12` is reported as 103% (rat plasma; 200 ng/mL, 2 weeks, -70 °C, post-preparative stability).
`O=C(O)CCC(=O)O.[2H]C([2H])([2H])Oc1cc(C)c2[nH]ccc2c1CN1CC[C@@H](C2CC2)C[C@H]1c1ccc(C(=O)O)cc1` — result for “subjects with TEAE Appendicitis”: 0% (multiple ascending dose; healthy Chinese subjects; 125 mg twice daily).
`O=C(Nc1cnccc1Cl)N1CCN(Cc2ccc3c(c2)OC(F)(F)O3)CC1`: “abdominal pain incidence” 33.3% (multiple ascending dose; young men; 75 mg, treatment-emergent adverse events).
`CNC(=O)c1ccc(-c2cnc3ncc(Cc4ccc5ncccc5c4)n3n2)cc1F`: “patients with adverse event” 8% (refers to: Headache, all grades; cancer patients; oral, dose not given, dose escalation, any causality).
